Measurements gathered from unrelated publications.
Compare with care: the assays were run in different laboratories. ± marks the error that the study gave.
ESR2: Estrogen receptor beta (ESR2, Homo sapiens, UniProt Q92731)
ESR1: Estrogen receptor (ESR1, Homo sapiens, UniProt P03372)
ABO G235S/G268A/L266M/R176G: Histo-blood group ABO system transferase (ABO, Homo sapiens, UniProt P16442, G235S/G268A/L266M/R176G)
ALB: Albumin (ALB, Homo sapiens, UniProt P02768)
OPRM1: Mu-type opioid receptor (OPRM1, Homo sapiens, UniProt P35372)
T1: DNA aptamer, 5' T15 spacer; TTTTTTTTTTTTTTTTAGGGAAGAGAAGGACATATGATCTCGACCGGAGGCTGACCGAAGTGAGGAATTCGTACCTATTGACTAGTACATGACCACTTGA

Under “activity vs control”, `C[C@@H](N)[C@H]1CC[C@H](C(=O)Nc2ccncc2)CC1` is recorded as < 10% (PRKX (Homo sapiens, UniProt P51817); enzyme activity, inhibitor, radiometric; 10 µM).
For `CC(C)(C)CCN1C[C@@H]2[C@@H](CNC(=O)c3cc(Cl)cc(Cl)c3)[C@@H]2C1.Cl`, the Gmax was 0.0691 ± 0.02 nS/pF (Voltage-dependent L-type calcium channel subunit alpha-1F, exon 47 deletion isoform (Homo sapiens, UniProt O60840); calcium current, whole-cell patch clamp; HEK-293T cells; 50 nM).
`CCCn1c(=O)c2[nH]c(-c3ccc(OCC(=O)NCCNC(=O)CCCCCNS(=O)(=O)c4ccc(C5=c6cc7c8c(c6Oc6c5cc5c9c6CCCN9CCC5)CCC[N+]=8CCC7)c(S(=O)(=O)[O-])c4)cc3)nc2n(CCC)c1=O` — result for “inverse agonist response”: 1.26 ± 0.06 fold increase (ADORA1 (Homo sapiens, UniProt P30542); CRE reporter gene, inverse agonist; CHO-A1; concentration not given, added: forskolin; reference: forskolin alone).
With `CCCCCCOc1ccc(C(=O)OCCN2CC=CCC2)cc1` the cooperativity factor was 0.001 ± 0.0003 (CHRM1 (Homo sapiens, UniProt P11229); antagonist, refers to: inositol phosphates; CHO; M1, added: carbachol).
`[123I]c1ccc2nc(-c3ccc(-n4ccnn4)nc3)cn2c1` gave an SUVR of 0.78 ± 0.05 (Amyloid-beta precursor protein, amyloid-beta (APP, Homo sapiens, UniProt P05067); SPECT; healthy controls, anterior cingulate; 120 to 210 min; reference: cerebellum).
The Emax of `Cc1ccc(C)c2sc(NC(=O)C3CCN(S(=O)(=O)c4ccc(F)cc4)CC3)nc12` is reported as 1.6 fold (N-acyl-phosphatidylethanolamine-hydrolyzing phospholipase D (Homo sapiens, UniProt Q6IQ20); activator; HepG2; added: flame-NAPE substrate; reference: vehicle).
`CC(=O)N[C@H](C(=O)N[C@@H](CC(C)C)C(=O)N[C@@H](CC(=O)O)C(=O)N[C@@H](CO)C(=O)N[C@@H](Cc1ccccc1)C(=O)N[C@@H](CCCCN)C(=O)N[C@H](C(=O)N[C@@H](CO)C(=O)N[C@@H](Cc1ccccc1)C(=O)N[C@@H](CC(C)C)C(=O)N[C@@H](CO)C(=O)N[C@@H](C)C(=O)N[C@@H](CC(C)C)C(=O)N[C@@H](CCC(=O)O)C(=O)N[C@@H](CCC(=O)O)C(=O)N[C@@H](Cc1ccc(O)cc1)C(=O)N[C@H](C(=O)N[C@@H](CCCCN)C(=O)N[C@@H](CCCCN)C(=O)N[C@@H](CC(C)C)C(=O)N[C@@H](CC(N)=O)C(=O)N[C@H](C(=O)N[C@@H](CCC(N)=O)C(N)=O)[C@@H](C)O)[C@@H](C)O)C(C)C)C(C)C`: cholesterol efflux “no effect” (ABCG1 (Homo sapiens, UniProt P45844); BHK transfected with ABCG1; 18 h).
With `Nc1nc2cnc(C(=O)N3CCOC[C@@H]3c3ccc(C(F)(F)F)cc3)cc2c2c1COC2` the binding occupancy was ~94% (Protein arginine N-methyltransferase 5, MTA-bound (PRMT5, Homo sapiens, UniProt O14744); SPR; concentration not given, added: MTA; reference: Rmax).
`Cc1cc(N2CC[C@](C#N)(C3(C)CC3)C2=O)cc(C(=O)NCc2cc(F)cc(-c3cnn(C)c3)c2)n1` has a ΔTm of 4 °C (EPRS1 (Homo sapiens, UniProt P07814); thermal stability).
Under “relative binding affinity”, `CCC(=C(c1ccc(O)cc1)c1ccc(OCCN(C)CCOCCOCCOCCN(C)CCOc2ccc(C(=C(CC)c3ccccc3)c3ccc(O)cc3)cc2)cc1)c1ccccc1` (mixture of isomers) is recorded as 13.9 ± 3.4% (ESR2; radioligand competition binding; concentration not given, Z-Z/Z isomer form, added: [3H]estradiol tracer; reference: estradiol).
`[11CH3]Nc1ccc(-c2nc3ccc(O)cc3o2)cn1` — result for “effect size of DVR”: 2.78 (APP (Homo sapiens, UniProt P05067); binding, PET; Alzheimer's disease patients, hippocampus; unit not given; reference: control subjects).
With `CCCCOc1ccc(C(=O)OCC[N+]2(C)CC=CCC2)cc1` (stereo not shown) the cooperativity factor was 0.0013 ± 0.0002 (CHRM3 (Homo sapiens, UniProt P20309); antagonist, refers to: inositol phosphates; CHO; M3, added: carbachol).
The fold activation of `CCC(=C(c1ccc(Cl)cc1)c1ccc(OCCN2CCCC2)cc1)c1ccc(Cl)cc1` is reported as 1.16 ± 0.09 fold (ESR1; reporter gene, agonist, yeast estrogen screen; 1 µM; reference: DMSO).
`C[C@]12CC[C@@H]3c4ccc(O)cc4C(=NOCC(=O)O)C[C@H]3[C@@H]1CC[C@@H]2O` gave a Kd of 0.95 nM (T1, DNA aptamer, 5' T15 spacer; plate-ELAA; NaCl 100 mM).
The residence time of `NCCCC[C@H](NC(=O)[C@H](C/C=C/C[C@H](NC(=O)[C@@H]1CCCN1)C(=O)N[C@@H](CCCCN)C(=O)NCCCN)NC(=O)[C@@H]1CCCN1)C(=O)NCCCN` is reported as 1 s ((CCUG)10 RNA; SPR).
For `Cc1ccc(C(=O)Nc2ccc(CP(=O)(O)O)cc2CP(=O)(O)O)cc1NC(=O)c1cccc(NC(=O)Nc2cccc(C(=O)Nc3cc(C(=O)Nc4ccc(CP(=O)(O)O)cc4CP(=O)(O)O)ccc3C)c2)c1`, the maximal inhibition was 95.4 ± 5.9% (Neutrophil elastase (ELANE, Homo sapiens, UniProt P08246); enzyme activity, inhibitor, chromogenic substrate hydrolysis; pH 7.4, 37 °C, 100 mM NaCl, added: substrate S-1384).
For `CCC(=C(c1ccc(O)cc1)c1ccc(OCCN(C)CCOCCOCCOCCOCCOCCN(C)CCOc2ccc(C(=C(CC)c3ccccc3)c3ccc(O)cc3)cc2)cc1)c1ccccc1` (mixture of isomers), “relative binding affinity” read 3.2 ± 1% (ESR2; radioligand competition binding; concentration not given, Z-E/E isomer form, added: [3H]estradiol tracer; reference: estradiol).
`Cc1cc(=O)oc2cc(NC(=O)[C@H](Cc3ccc(O)cc3)NC(=O)[C@H](CCC(N)=O)NC(=O)[C@H](CCC(N)=O)NC(=O)[C@H](CO)NC(=O)[C@H](CCCCN)NC(=O)[C@H](CCCNC(=N)N)NC(=O)[C@H](CO)NC(=O)N3CCOCC3)ccc12` has a Km of 140 µM (Prostate-specific antigen (Homo sapiens, UniProt P07288); substrate).
The kcat of `C[N+](C)(C)CCCOc1ccc2cc(CN)ccc2c1` is reported as 0.159 ± 0.002 s⁻¹ (Primary amine oxidase, liver isozyme (Bos taurus, UniProt Q29437); substrate, fluorescence; pH 7.2, 30 °C).
For `CC(C)C(=O)NC1CC=C(c2cc3c(Nc4cc5ncsc5cc4F)ncnc3s2)CC1` (racemic), the remaining activity was 99 ± 2% (RIPK1 (Homo sapiens, UniProt Q13546); enzyme activity; 1 µM; reference: untreated).
`C=CCCCCCCO[C@H]1O[C@H](CO)[C@H](O)[C@H](O[C@@H]2O[C@H](CO)[C@H](O)[C@H](O)[C@H]2O[C@@H]2O[C@@H](C)[C@@H](O)[C@@H](O)[C@@H]2O)[C@H]1NC(C)=O` has a kon of 230000 M⁻¹ s⁻¹ (ABO G235S/G268A/L266M/R176G; methyl-TROSY NMR titration lineshape analysis; apo enzyme).
For `C/C(=N\OCCN1CCCC1)c1ccc(C(F)(F)F)cc1`, the Ki ratio was 9.12 (rat sigma-1 receptor; binding; added: phenytoin 250 µM; reference: without over with phenytoin).
With `O=C1Nc2ccc(Cl)cc2/C1=N/N=C/c1ccc(OCc2ccccc2)cc1` the remaining activity was 54.4% (MAOB (Homo sapiens, UniProt P27338); enzyme activity, inhibitor; 10 µM).
`CCCCSc1nc2c([nH]1)c(=S)n(C)c(=S)n2C` gave a reporter activity of 77% (ESR1; reporter gene, ERE luciferase; T47D-KBluc; 10 µM, 24 h, added: estradiol 5 nM; reference: maximal luciferase activity).
`O=S([O-])c1ccccc1N=Cc1ccccc1[O-].[Cu+2].c1c[nH]cn1` gave a donor-acceptor distance of 2.75 nm (ALB; FRET; 4 µM).
`Oc1cc(C(F)F)ncn1`: binding “no binding” (DUSP14 (Homo sapiens, UniProt O95147); 19F NMR; concentration not given).
For `COc1ccc(C(/C=C\CN2CCC[C@H](C(=O)O)C2)(c2ccc(OC)cc2)c2ccc(OC)cc2)cc1`, “remaining specific binding” read 38.9 ± 1% (Sodium- and chloride-dependent glycine transporter 1, isoform GlyT1c (SLC6A9, Homo sapiens, UniProt P48067); inhibitor, MS binding competition; 1.0 µM, pH 7.5, 22 °C, compound mixture deconvolution, added: Org24598 15 nM).
`CC(CCC(=O)NC(CCC(=O)Nc1ccc(Br)nc1)C(=O)O)C1CCC2C3C(O)CC4CC(O)CCC4(C)C3CCC12C` (stereo not shown) gave a Kt of 83.6 µM (SLC10A2 (Homo sapiens, UniProt Q12908); transport, substrate, LC-MS/MS; ASBT-MDCK cells).
The Vmax of `O=C1C=CC2(c3coc4cc(O)ccc4c3=O)c3cc(-c4coc5cc(O)ccc5c4=O)ccc3OC2C1` (stereo not shown) is reported as 56.5 ± 2.5 µmol/min/mg (PRXC1A (Armoracia rusticana, UniProt P00433); oxidation, substrate).
The binding enthalpy of `CC(=O)N(CC(=O)N(C)[C@@H](C)C(=O)N(Cc1c[nH]c2cc(Cl)ccc12)[C@@H](C)C(=O)N(C)[C@@H](C)C(=O)N(CCC(C)(C)C)[C@@H](C)C(=O)N1CCNCC1)Cc1ccccc1` is reported as -7.78 kcal/mol (E3 ubiquitin-protein ligase Mdm2, N-terminal domain 17-125 (MDM2, Homo sapiens, UniProt Q00987); isothermal titration calorimetry; PBS; concentration not given, 25 °C).
For `CC[C@H](C)[C@H](NC(=O)CNC(C)=O)C(=O)N[C@@H](CCCNC(=N)N)C(=O)N[C@@H](CCC(=O)O)C(=O)N[C@@H](C)C(=O)N[C@H](C(=O)N[C@@H](CC(C)C)C(=O)N[C@@H](CCCNC(=N)N)C(=O)N[C@@H](C)C(=O)N[C@@H](Cc1c[nH]c2ccccc12)C(=O)N[C@@H](CCC(=O)O)C(=O)N[C@@H](CCCNC(=N)N)C(=O)N[C@@H](CCCNC(=N)N)C(=O)N[C@@H](Cc1ccc(O)cc1)C(=O)NCC(=O)N[C@@H](Cc1ccccc1)C(=O)N1CCC[C@H]1C(=O)N[C@@H](CCCNC(=N)N)C(=O)N1CCC[C@H]1C(=O)N[C@@H](CC(C)C)C(=O)N[C@@H](CCCNC(=N)N)C(=O)N[C@@H](CO)C(=O)N[C@@H](CCC(=O)O)C(N)=O)[C@@H](C)O`, the binding stoichiometry was 0.89 ± 0.01 (Antirepressor protein CarS (carS, Myxococcus xanthus, UniProt Q06911); ITC; concentration not given, pH 7.5, 35 °C).
Under “apparent binding constant”, `CCCNCC(=O)O` is recorded as 1.4 mM⁻¹ (ALB; UV-vis absorption titration; pH 7.4, room temperature).
`O=C(NCc1ccsc1)N1CCN(C(Cc2cccc(O)c2)c2ccccc2)CC1` (stereo not shown) has an Emax of 97% (OPRM1; β-arrestin recruitment, agonist; U2OS with GRK2; reference: DAMGO).
`COc1cc(O)c(CC=C(C)C)c2c1C(=O)[C@H](O)[C@@H](c1ccccc1)O2` — result for “binding site number”: 0.95 (PTPN1 (Homo sapiens, UniProt P18031); fluorescence quenching; concentration not given).
With `CCC(=C(c1ccc(Cl)cc1)c1ccc(OCCN(C)C)cc1)c1ccc(OC)cc1` the fold activation was 5.49 ± 0.71 fold (ESR1; reporter gene, agonist, yeast estrogen screen; 1 µM; reference: DMSO).
For `Nc1nc2cc(CC[C@H]3C[C@@H](n4ccc5c(N)ncnc54)[C@H](O)[C@@H]3O)ccc2cc1Br`, the k_inact/Ki was 610000 M⁻¹ s⁻¹ (Protein arginine N-methyltransferase 5, with WDR77 (PRMT5, Homo sapiens, UniProt O14744); inhibitor, RapidFire MS; added: MEP50).
`C=CC(=O)N1CCC(c2ccccc2)CC1` has a protein-compound complex of < 2% (Fosb/Jund, ΔFosB bZIP domain (Mus musculus, UniProt P13346+P15066); covalent adduct, intact mass LC-MS; concentration not given).
`CC(=O)[C@]12NC(C)(C)C[C@@]1(C)C(=O)C1=C2c2c(c3c4n2C(C)(C)CC2=C4[C@@]4(CC(C)(C)N[C@@](C)(C4)C2=O)CC3(C)C)C(=O)C(C)(C)N1` (racemic): activity “inactive” (OPRM1; cAMP level, agonist, LANCE Ultra cAMP; CHO cells; concentration not given).
With `C=CCCCCCCO[C@@H]1O[C@H](CO)[C@@H](O[C@@H]2O[C@H](CO)[C@H](O)[C@H](O)[C@H]2O[C@@H]2O[C@@H](C)[C@@H](O)[C@@H](O)[C@@H]2O)[C@H](O)[C@H]1NC(C)=O` the koff was 210 ± 7 s⁻¹ (ABO G235S/G268A/L266M/R176G; methyl-TROSY NMR titration lineshape analysis; apo enzyme).
The affinity ratio of `CN(C)S(=O)(=O)c1ccc(S(=O)(=O)N2CCC(n3c(=O)[nH]c4ccccc43)CC2)cc1` is reported as 0.34 (mfd (Escherichia coli, UniProt P30958); ITC; concentration not given, added: ATP; reference: ATP Ka with over without).
